Experimental data collected from several papers.
A part holds a random share of what one study measured. Changes are numbered by the printed parent chain.

Study 1 — method: aptamer microarray, sandwich; molecule type: DNA with 2'F-ANA; sample: in vitro; concentration: 200 nM; added: Cy3 exosite-II aptamer, 400 nM; reading: higher = stronger binding; oligonucleotide: GGTTGGTGTGGTTGG
Target: Prothrombin, mature alpha-thrombin (F2, Homo sapiens, UniProt P00734)
Setting: whole 15-mer aptamer, many near background
`2'F-ANA at 1 2 3 4 5 10 12 14 15` — result for “mean fluorescence intensity”: 55.1 a.u.
`2'F-ANA at 3 4 5 7 9 11 12 15`: “mean fluorescence intensity” 157 a.u.
For `2'F-ANA at 2 3 7 8 9 10 12 13 14 15`, “mean fluorescence intensity” read 289 a.u.
Under “mean fluorescence intensity”, `2'F-ANA at 1 2 7 9 13` is recorded as 114 a.u.
`2'F-ANA at 4 5 11 12`: “mean fluorescence intensity” 111 a.u.
For `2'F-ANA at 3 6 7 8 11 14 15`, “mean fluorescence intensity” read 473 a.u.
`2'F-ANA at 1 2 7 13` — result for “mean fluorescence intensity”: 120 a.u.
Under “mean fluorescence intensity”, `2'F-ANA at 2 3 4 6 7 8 9 13` is recorded as 388 a.u.
Under “mean fluorescence intensity”, `2'F-ANA at 4 6 8 11 14 15` is recorded as 79.4 a.u.
For `2'F-ANA at 1 3 7 8 9`, “mean fluorescence intensity” read 354 a.u.
Under “mean fluorescence intensity”, `2'F-ANA at 1 2 3 4 7 9 10` is recorded as 60.5 a.u.
Under “mean fluorescence intensity”, `2'F-ANA at 1 2 3 5 7 9 10 11 14 15` is recorded as 50.6 a.u.
`2'F-ANA at 2 4 5 9 10 12 15`: “mean fluorescence intensity” 52.3 a.u.
Under “mean fluorescence intensity”, `2'F-ANA at 3 4 6 7 9 10 12 13 14 15` is recorded as 189 a.u.
Under “mean fluorescence intensity”, `2'F-ANA at 5 7 10 12 13` is recorded as 45.7 a.u.
`2'F-ANA at 3 4 7 11 14` — result for “mean fluorescence intensity”: 360 a.u.
For `2'F-ANA at 1 3 4 9 11 12 15`, “mean fluorescence intensity” read 284 a.u.
`2'F-ANA at 6 7 9 12 14 15` — result for “mean fluorescence intensity”: 202 a.u.
For `2'F-ANA at 4 5 8 9 10`, “mean fluorescence intensity” read 50.3 a.u.
For `2'F-ANA at 4 5 6 7 8`, “mean fluorescence intensity” read 82.1 a.u.
`2'F-ANA at 3 5 7 11`: “mean fluorescence intensity” 119 a.u.
`2'F-ANA at 1 4 5 6 7 8 12 14`: “mean fluorescence intensity” 60.1 a.u.

Study 2 — method: RNA Bind-n-Seq; molecule type: RNA; sample: in vitro; concentration: 365 nM; baseline: no-protein control; reading: higher = stronger binding
Target: RNA binding protein fox-1 homolog 2, RRM domain, GST-SBP tag (RBFOX2, Homo sapiens, UniProt O43251-10, residues 100-194)
Setting: natural RNA segment, single round, ends assumed
Construct (chain): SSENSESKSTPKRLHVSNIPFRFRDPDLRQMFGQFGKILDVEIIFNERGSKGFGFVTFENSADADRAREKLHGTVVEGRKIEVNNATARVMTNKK
`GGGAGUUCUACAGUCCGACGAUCAAAGCGGUCAACUGGAAACUAAAUGGAGCAGCAGCUCCUCUCUGUGGCCAGGGCAUCAGACACAGGAGGAUCCCAGAACGGCAGCACUGAGCCCCUGCUCCCAGAUCCCUUGGAAUUCUCGGGUGCCAA`: “RBNS enrichment (R)” 0.256.
`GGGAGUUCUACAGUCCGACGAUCGCGAUAGUCCUGGGUGCUCCACUGAUUGGAGGAUAGAGCCAGCUGUCUGACACACAAAUGGUCUUUUCAGCCACAGUCUUAUCAAGUAUCCUAUAUGUAUUCCUUUCUAAUGGAAUUCUCGGGUGCCAA` — result for “RBNS enrichment (R)”: 0.284.
For `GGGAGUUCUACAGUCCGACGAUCUUACUGCUACUUUCAUGUUGCUUUCUAGAAAACAGCAUUUCAUUCCAAAAUAACUAGGAUCUGCAUUUAGAACAAGAAUCAUUAUUUGUCCUGACCUUUUCAGUCCUACAUGGAAUUCUCGGGUGCCAA`, “RBNS enrichment (R)” read 0.368.
For `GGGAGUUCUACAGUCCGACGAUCGUCAACAGGAGAGAAAGGGCCCGGCAACCCUCUGGCCCUAACCUGCUCUAGCCUGUACAUCCCACAUCCUCCGUCCGUCUGUCCAUCCAGGGUUUGUCUGUCCUGAAAGUUGGAAUUCUCGGGUGCCAA`, “RBNS enrichment (R)” read 0.444.
`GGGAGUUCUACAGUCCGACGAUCAACCCACCCCACACGCCAUGGACCUCAGGGCACUCUCCUCCCUGCCCACAAAGACCUCCUGGGUGGGAAAGACUCAAAGGGGUGCUUGGGCCACUCAGGACCCCUCUGGCUGGAAUUCUCGGGUGCCAA` — result for “RBNS enrichment (R)”: 0.393.
Under “RBNS enrichment (R)”, `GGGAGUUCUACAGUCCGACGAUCAAGGCAUGCCUCUCCCACAGGAAGAGGGGAGCAGACAGGGAAAUCUGCCUACCAAGAGGGGUGUGUGUGUCUUUGUGCCCACACGUGGUGGCUGGGGAGUGCCUGGAUGGUGGAAUUCUCGGGUGCCAA` is recorded as 0.636.
`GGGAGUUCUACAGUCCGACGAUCUCUCCCAAAGAACUCUACGUUAAACAUACACCAGUUUUCUUUUAUGACCUGGAGUUAGGAGUGAGUUUGUGUGUUGUUGAUAGAGCAACUCAGGUAAUUUCCAUUUCUGGUGGAAUUCUCGGGUGCCAA` — result for “RBNS enrichment (R)”: 0.464.
`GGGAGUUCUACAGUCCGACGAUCAUAAUAGGUUUAUUAACUGAAUUUCAUUAGUUUUUUAAAAGUGUUUUUGGUUUGUGUAUAUAUACAUAUACAAAUACAACAUUUACAAUAAAUAAAAUACUUGAAAUUCUUGGAAUUCUCGGGUGCCAA` — result for “RBNS enrichment (R)”: 0.615.

Study 3 — method: DHFR PCA, deep sequencing; sample: yeast; added: (+)-ABA 4.8 µM; baseline: wild-type fitted maximum; reading: higher = stronger binding
Target: ABI1, truncated, D143A, DHFR fusion (Arabidopsis thaliana)
Setting: methotrexate growth selection, single substitutions
Starting sequence: PYL1, truncated, DHFR fusion (Arabidopsis thaliana); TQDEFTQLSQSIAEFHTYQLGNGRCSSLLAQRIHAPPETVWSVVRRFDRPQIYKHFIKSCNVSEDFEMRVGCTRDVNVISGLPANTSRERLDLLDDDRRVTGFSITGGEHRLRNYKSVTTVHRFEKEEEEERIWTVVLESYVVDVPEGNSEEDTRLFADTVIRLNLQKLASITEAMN
For `R88G`, “relative binding score” read -2.6%.
`P36R`: “relative binding score” 57.2%.
Under “relative binding score”, `D97V` is recorded as 72.4%.
`E38M` — result for “relative binding score”: 20.1%.
For `R88K`, “relative binding score” read 76.7%.
`E4L`: “relative binding score” 73.1%.
`Q167F` — result for “relative binding score”: 29.2%.
For `E128Q`, “relative binding score” read 73.9%.
`P37A` — result for “relative binding score”: 59.1%.
`Q2F` — result for “relative binding score”: 78.3%.
`N85W`: “relative binding score” 70.6%.

Study 4 — method: EMSA with sequencing; molecule type: double-stranded DNA, one strand shown; sample: in vitro; concentration: 10 and 20 nM; baseline: negative control set to 0; reading: higher = stronger binding
Target: Hepatocyte nuclear factor 3-alpha (Foxa1, Mus musculus, UniProt P35582, residues 1-468, full length assumed)
UniProt P35582, sequence (whole entry, looked up): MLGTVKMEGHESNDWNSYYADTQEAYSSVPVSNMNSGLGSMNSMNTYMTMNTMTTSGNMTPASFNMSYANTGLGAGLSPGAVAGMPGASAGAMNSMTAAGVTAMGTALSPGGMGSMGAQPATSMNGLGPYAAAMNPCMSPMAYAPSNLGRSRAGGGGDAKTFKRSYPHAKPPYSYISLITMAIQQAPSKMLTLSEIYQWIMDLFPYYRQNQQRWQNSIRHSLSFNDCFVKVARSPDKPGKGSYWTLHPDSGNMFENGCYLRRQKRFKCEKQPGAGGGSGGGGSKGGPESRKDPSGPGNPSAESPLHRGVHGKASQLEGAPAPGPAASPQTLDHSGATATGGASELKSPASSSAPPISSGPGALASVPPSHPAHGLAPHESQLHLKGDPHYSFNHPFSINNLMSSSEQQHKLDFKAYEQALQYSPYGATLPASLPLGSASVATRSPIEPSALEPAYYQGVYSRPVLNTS
Setting: whole designed probe, mean of two concentrations, ends assumed
`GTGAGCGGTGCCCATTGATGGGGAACATCTTCCCCCTCTTCCTTGCCCCACCAGCTCACCTTCCCGGGTTGTTTACTTTGAGCAAAGTAAACAAAGCCGGCATTCGTTAACCCTCTTCACGCGCATACTGCACATTGGTCTGGATGAATCATGGTCCTTTGGCGACGCCAGGCTCCGGGAGAGCAAAGCACCGTGTCAGGGCCATGATCCGGGGTGGCCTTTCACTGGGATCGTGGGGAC` — result for “normalised bound fraction”: 0.532 ratio.
For `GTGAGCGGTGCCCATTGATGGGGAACACTAAATACAAACGATTAGAGCGTCACGGAAGATTAGCAAACATTCTACTGCAAACAGCACTCCCAGATCCACAGAAACCAGGTCACTACTATGTAAACATTTTGCACCACTTCGTAAACAGATAAAAATATCAAGTCAGTTTGGTGTAAACAGACCAACAGCAGGAGAAGCCAGCATCCTTCTTAGATGGGATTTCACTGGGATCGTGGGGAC`, “normalised bound fraction” read 0.479 ratio.
For `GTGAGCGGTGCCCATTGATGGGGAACCTCTCTTCTCCCACCATCAACTCTAAACAAATCTCAGTGTCAGTTGAAGGATTTCATGTCCTGAATCTGCAAACCAGGATCATCTGGCAGCACTGTTTACCTAAAGTGATTAAAACCCATGAATCATGATGTTTATACAAGTTTTTCTTCCTTGTAAAAAGGCAAGAGGCAACGCTATAGACCACAGACGGAATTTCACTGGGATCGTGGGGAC`, “normalised bound fraction” read 0.319 ratio.
`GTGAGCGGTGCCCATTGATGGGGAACTGGAAACCTGTAAGTATCTTATGTGGAGAGACTAAGCGAAGAAACATTCTTTCTAAAATGAATCACATATTAACATAAAAAATCCCATTTTTCTTGTTTACTTTGAAGGCTACCTCTCAAAAATGTAACATGCAGCCGCTGGCATCTTTGCATCTTTGAACTCACTATTCCTTTTTCAAGCAGTCTGAGTTGATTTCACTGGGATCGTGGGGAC` — result for “normalised bound fraction”: 0.326 ratio.
`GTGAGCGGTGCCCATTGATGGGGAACGGAAGCTGAACTAGGCAGTGGGTCCCCAGGGATGGTGGGAAGTGACGAGGGCTCAGGGATCTGCCCACTTACTCTTTATTTGCAAACAGTATGTAAACACACATGCAAGCTGTCACTGCCCTCAGGGCGCTGGCATGCTGCCACCCCAGCCCCTGGATCCTGGTGCTTGGGCGCCTTGGCTTTATAGCATTTGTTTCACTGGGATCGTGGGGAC` — result for “normalised bound fraction”: 0.421 ratio.

Excerpt of the above (study 2):
For `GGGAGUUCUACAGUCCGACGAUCGUCAACAGGAGAGAAAGGGCCCGGCAACCCUCUGGCCCUAACCUGCUCUAGCCUGUACAUCCCACAUCCUCCGUCCGUCUGUCCAUCCAGGGUUUGUCUGUCCUGAAAGUUGGAAUUCUCGGGUGCCAA`, “RBNS enrichment (R)” read 0.444.
`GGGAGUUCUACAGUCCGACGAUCAACCCACCCCACACGCCAUGGACCUCAGGGCACUCUCCUCCCUGCCCACAAAGACCUCCUGGGUGGGAAAGACUCAAAGGGGUGCUUGGGCCACUCAGGACCCCUCUGGCUGGAAUUCUCGGGUGCCAA` — result for “RBNS enrichment (R)”: 0.393.
Under “RBNS enrichment (R)”, `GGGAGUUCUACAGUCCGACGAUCAAGGCAUGCCUCUCCCACAGGAAGAGGGGAGCAGACAGGGAAAUCUGCCUACCAAGAGGGGUGUGUGUGUCUUUGUGCCCACACGUGGUGGCUGGGGAGUGCCUGGAUGGUGGAAUUCUCGGGUGCCAA` is recorded as 0.636.
`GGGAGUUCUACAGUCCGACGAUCUCUCCCAAAGAACUCUACGUUAAACAUACACCAGUUUUCUUUUAUGACCUGGAGUUAGGAGUGAGUUUGUGUGUUGUUGAUAGAGCAACUCAGGUAAUUUCCAUUUCUGGUGGAAUUCUCGGGUGCCAA` — result for “RBNS enrichment (R)”: 0.464.
`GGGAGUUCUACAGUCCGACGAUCAUAAUAGGUUUAUUAACUGAAUUUCAUUAGUUUUUUAAAAGUGUUUUUGGUUUGUGUAUAUAUACAUAUACAAAUACAACAUUUACAAUAAAUAAAAUACUUGAAAUUCUUGGAAUUCUCGGGUGCCAA` — result for “RBNS enrichment (R)”: 0.615.
